Results collected from several papers.
Parts stem from different laboratories: compare values within a part only. Positions count from the first letter of the parent shown.

Set 1 — target: CCNE2, cyclin fold, Cln2 fusion (human); method: yeast growth competition, sequencing; sample: yeast; setting: weak parent motif; relative to: not given; reading: higher = stronger binding; quantity: normalised enrichment score
Starting sequence: ASZ1 docking peptide (human); GFGFLLFICKLTF
GFGALLFICKLTF [F4A]: 0.419
GFGFALFICKLTF [L5A]: 0.72
GFGFLLFICALTF [K10A]: 0.847
GFAFLLFICKLTF [G3A]: 1.17
GFGFLLFICKLTA [F13A]: 0.59
GFGFLAFICKLTF [L6A]: 0.982

Set 2 — method: RNA Bind-n-Seq; molecule type: RNA; sample: in vitro; tested at: not given; relative to: input RNA pool; reading: higher = stronger binding; quantity: bound/input enrichment
Target: RING finger protein unkempt homolog, zinc fingers 1-6, GST-SBP tag (UNK, Homo sapiens, UniProt Q9C0B0, residues 30-357)
Setting: RNA with constant flanks, human and mouse sites, ends assumed
Residues (chain): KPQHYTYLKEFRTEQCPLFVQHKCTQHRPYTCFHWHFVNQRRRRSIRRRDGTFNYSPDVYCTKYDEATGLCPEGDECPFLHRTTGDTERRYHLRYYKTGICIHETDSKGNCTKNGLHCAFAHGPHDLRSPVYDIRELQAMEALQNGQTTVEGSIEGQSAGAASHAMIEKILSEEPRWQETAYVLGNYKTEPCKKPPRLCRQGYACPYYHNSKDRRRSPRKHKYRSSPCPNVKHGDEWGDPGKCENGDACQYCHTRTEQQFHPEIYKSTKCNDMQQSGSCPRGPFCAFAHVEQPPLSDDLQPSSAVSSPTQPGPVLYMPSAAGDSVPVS
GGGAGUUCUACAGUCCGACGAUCAUAUGCUUACCUUUUGAAUGAUCAUGGCUAUAUGUUGUUGAGAUAUUUGAAACUUACCUUGUUUUCACUUGUGCACUGUGAAUGAACUUUGUAUUAUUUUUUUAAAACCUUCACAUUACGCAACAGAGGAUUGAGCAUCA: 0.491 ratio
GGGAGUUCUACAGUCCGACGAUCGGUACUUUUAUAAACAUUAGUGUAUUUAUUUCCUAUGUGUUAAUAUGAAGAUCAGAAAUUAUUUUUUGCACUUUGGCAUAAAUACUUUUCAAUAUCUGAUUUGUUCUCUGGAUAAAUUAGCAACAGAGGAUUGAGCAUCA: 8 ratio
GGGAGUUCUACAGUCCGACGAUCGAAAGCAUCACUUCAGCUGGGAGAGAUGACCUAGAGAGCUUCCAGCUUGAGAUAAGUGGGUUUUUAAAAGAGAUGGCCUGUCCAUACUCGGUACUCGUCUCAGGAGACAUUAAAGAGCGCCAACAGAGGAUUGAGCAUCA: 0.335 ratio
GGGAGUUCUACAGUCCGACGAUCAACAAGUGGGUAAUUCCAGAAUUGAUUGGCCAUACCAUUGUCACUGUAUUACUGCUCAUGUCAUUGCACUGGUUCAUCUUCCUUCUCAACUUACCUGUUGCCACUUGGAAUAUAUAUCGACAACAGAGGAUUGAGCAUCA: 0.276 ratio
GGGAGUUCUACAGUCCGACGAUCGACUUAGAUAAUUCUUUGGAAGUGAAAGCUAAACCUGCUUCUGGCCUAGAUGGUAAUUUCAAUAGUGUCCGAAUGGAUAUGUUCAGUGUGUAGGAGUGAAGACAGGAUCCCGUGCUUAAACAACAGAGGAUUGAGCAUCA: 0.666 ratio
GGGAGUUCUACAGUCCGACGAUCACAUGGGUUCAAUUGGACAAUUAUUUUUGCUCUGCUCUGUUUUGCAUGGAGUAUUAUUAUUUUAAAAAUUGCAUUUUUACCUUUCAUGUGCCUGAAGGCUAUCCACUACAUUCUGAAGGCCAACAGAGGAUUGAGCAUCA: 0.79 ratio
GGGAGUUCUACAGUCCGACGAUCGAGAAAUACUUCCAAUUCCAAGAAGAGGGCAAAGAAGGAGAGAACAGAGCAGUUAUCCAUUAUAGGGAUGAUGAGACCAUGUAUGUGGAAUCUAAGAAAGACAGAGUCACAGUAGUCUUCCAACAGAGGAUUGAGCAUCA: 0.537 ratio
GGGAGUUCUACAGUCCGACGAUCGUUCCAGACCCGGAGCUGAUCGAUUUGAUCUACUGUGGCCGGAAGCUAAAAGAUGACCAGACCCUUGACUUCUAUGGUAUUCAGCCUGGAUCCACAGUCCAUGUUCUCCGAAAAUCUUGGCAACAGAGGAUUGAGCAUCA: 0.0528 ratio
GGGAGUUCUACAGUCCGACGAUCAUGGCUCUCCUGGUGCUCGGUCUGGUGAGCUGUACCUUCUUUCUGGCAGUGAAUGGUCUGUAUUCCUCUAGUGAUGAUGUGAUCGAAUUAACUCCAUCGAAUUUCAACCGAGAAGUUAUUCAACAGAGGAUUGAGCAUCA: 0.333 ratio
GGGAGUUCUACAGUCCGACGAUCCCUGUUCUCAUUUCAGCUAUGAAGAUUUUUGUUACAACCAAAAACUCAAAAAACCAAGGAAUAGAAGAAGCUUUGAAAAAUCGAAAUUUUACUGUAGAAAAGAUGAGUGCUGAAAUUAACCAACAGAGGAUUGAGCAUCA: 0.312 ratio
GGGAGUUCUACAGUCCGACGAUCAAUUCCAGUGACAGUGAUUCAUCUUGUGGUUGGACUGUCAUCAGUCAUGAGGGGUCAGAUAUAGAAAUGUUGAAUUCUGUGACCCCCACUGACAGCUGUGAGCCCGCCCCAGAAUGUUCACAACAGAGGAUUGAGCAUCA: 0.0726 ratio

Set 3 — method: aptamer microarray, sandwich; molecule type: DNA with 2'F-ANA; sample: in vitro; tested at: 200 nM; added: Cy3 exosite-II aptamer, 400 nM; reading: higher = stronger binding; quantity: mean fluorescence intensity; strand: GGTTGGTGTGGTTGG
Target: Prothrombin, mature alpha-thrombin (F2, Homo sapiens, UniProt P00734)
Setting: whole 15-mer aptamer, many near background
2'F-ANA at 3 4 6 7 10 12 13 15: 235 a.u.
2'F-ANA at 2 4 5 6 10 11 13 14: 50.5 a.u.
2'F-ANA at 1 2 3 4 5 6 8 9 12 13: 105 a.u.
2'F-ANA at 1 2 7 8 11 13 14 15: 73.6 a.u.
2'F-ANA at 2 4 5 7 8 9 10 11 15: 58.1 a.u.
2'F-ANA at 5 6 7 10 11 14: 42.7 a.u.
2'F-ANA at 5 6 7 8 9 10 15: 47.5 a.u.
2'F-ANA at 2 7 8 10 12 15: 206 a.u.
2'F-ANA at 1 2 6 11 12 14 15: 67.3 a.u.
2'F-ANA at 2 3 4 6 7 8 9 10 14 15: 154 a.u.
2'F-ANA at 6 7 8 9 11: 444 a.u.
2'F-ANA at 4 5 6 7 13 15: 48.9 a.u.
2'F-ANA at 1 4 8 9 11 13: 101 a.u.
2'F-ANA at 4 6 7 8 9 10 11 14 15: 64.3 a.u.
2'F-ANA at 1 3 6 7 8 10 14 15: 65.2 a.u.
2'F-ANA at 4 5 7 11 14: 44.8 a.u.
2'F-ANA at 4 5 10 12 13 15: 84.7 a.u.
2'F-ANA at 1 2 3 4 6 7 8 9 10: 81.1 a.u.
2'F-ANA at 3 4 5 7 9 11 12: 169 a.u.
2'F-ANA at 1 2 3 4 6 7 9 15: 130 a.u.
2'F-ANA at 1 4 6 7 9 10 12 14 15: 46.4 a.u.
2'F-ANA at 1 4 5 11 14 15: 46.8 a.u.
2'F-ANA at 1 3 4 6 10 11 13 15: 56.2 a.u.
2'F-ANA at 1 2 4 10 11 15: 47.6 a.u.
2'F-ANA at 1 2 4 6 13: 71.8 a.u.

Set 4 — method: DHFR PCA, deep sequencing; sample: yeast; added: (+)-ABA 2500 µM; relative to: wild-type fitted maximum; reading: higher = stronger binding; quantity: relative binding score
Target: ABI1, truncated, D143A, DHFR fusion (Arabidopsis thaliana)
Setting: methotrexate growth selection, single substitutions
Starting sequence: PYL1, truncated, DHFR fusion (Arabidopsis thaliana); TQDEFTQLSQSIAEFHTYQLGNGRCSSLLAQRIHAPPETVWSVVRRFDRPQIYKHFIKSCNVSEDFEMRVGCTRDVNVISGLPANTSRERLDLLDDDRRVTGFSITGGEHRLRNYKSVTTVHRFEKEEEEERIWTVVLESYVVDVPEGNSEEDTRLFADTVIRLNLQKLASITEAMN; partner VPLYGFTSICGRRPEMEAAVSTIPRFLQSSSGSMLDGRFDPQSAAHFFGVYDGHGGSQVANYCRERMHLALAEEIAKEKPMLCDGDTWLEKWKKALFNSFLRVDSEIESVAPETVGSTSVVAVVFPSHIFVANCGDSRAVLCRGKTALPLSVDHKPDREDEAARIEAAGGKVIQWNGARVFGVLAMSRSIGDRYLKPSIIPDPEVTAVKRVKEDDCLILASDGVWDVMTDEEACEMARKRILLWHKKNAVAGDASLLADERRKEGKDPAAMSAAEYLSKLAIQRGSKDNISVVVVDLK
P50Q: 31.5%
T120W: 35.8%
K116Y: 87.4%
K58I: 82.2%
A35M: 88.5%
N77K: 94.8%
L138I: 99.4%
E125D: 103%
V62A: 94.4%
F56W: 94.3%
L82K: 5.67%
P37S: 94.6%
N165V: 6.78%
R74L: -8.59%
L20H: 101%
E109F: 92.9%

Set 5 — method: protein-binding microarray; molecule type: hairpin DNA; sample: in vitro; tested at: not given; relative to: not given; reading: higher = stronger binding; quantity: median fluorescence
Target: Runt-related transcription factor 3, Runt domain (RUNX3, Homo sapiens, UniProt Q13761, residues 53-186)
Chain of UniProt Q13761 (53-186, looked up): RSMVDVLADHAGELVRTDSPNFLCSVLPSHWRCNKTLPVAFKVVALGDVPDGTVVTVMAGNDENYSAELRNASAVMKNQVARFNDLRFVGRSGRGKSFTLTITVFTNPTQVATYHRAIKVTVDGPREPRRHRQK
Setting: whole hairpin DNA, median over replicate spots
GAGGCCTGTCGCGGTTGGCCTCCTGGCCAACCGCGACAGGCCTCACACTC (5mC at 32 34): 5000 a.u.
GAGGCCCAACCGCAGCAGCCTCCTGGCTGCTGCGGTTGGGCCTCACACTC: 7300 a.u.
CTCAGTTCTCGGGGCTGGACTCCTGTCCAGCCCCGAGAACTGAGACACTC (5mC at 34): 4180 a.u.
GAGGCCTGTCGCGGTTGGCCTCCTGGCCAACCGCGACAGGCCTCACACTC: 6190 a.u.
GAGGCCTGTTGCGGTGGGCCTCCTGGCCCACCGCAACAGGCCTCACACTC: 5800 a.u.
GAGGCCTGCGGTGGTTGGCCTCCTGGCCAACCACCGCAGGCCTCACACTC (5mC at 35): 5720 a.u.
GAGGCCTGTTGTGGGTGGCCTCCTGGCCACCCACAACAGGCCTCACACTC (5mC at 30): 4940 a.u.
GAGGCCCAACCCGAACAGCCTCCTGGCTGTTCGGGTTGGGCCTCACACTC: 5200 a.u.
CTCAGTTCTGTGAGCTGGACTCCTGTCCAGCTCACAGAACTGAGACACTC: 4110 a.u.
GAGGCCTGTCGCGGCGGGCCTCCTGGCCCGCCGCGACAGGCCTCACACTC (5mC at 15 29): 5970 a.u.
GAGGCCTGCTGCGGTTGGCCTCCTGGCCAACCGCAGCAGGCCTCACACTC: 7650 a.u.
GAGGCCTGTTGTGCTTGGCCTCCTGGCCAAGCACAACAGGCCTCACACTC: 4760 a.u.
GAGGCCTGTTGCGGTTCGCCTCCTGGCGAACCGCAACAGGCCTCACACTC: 7130 a.u.
GAGGCCTGTCGCGGCGGGCCTCCTGGCCCGCCGCGACAGGCCTCACACTC (5mC at 29): 5940 a.u.

For quick reference, copied from above (set 3):
2'F-ANA at 4 5 10 12 13 15: 84.7 a.u.
2'F-ANA at 1 3 4 6 10 11 13 15: 56.2 a.u.
2'F-ANA at 1 4 6 7 9 10 12 14 15: 46.4 a.u.
2'F-ANA at 5 6 7 10 11 14: 42.7 a.u.
2'F-ANA at 2 4 5 7 8 9 10 11 15: 58.1 a.u.
2'F-ANA at 6 7 8 9 11: 444 a.u.
2'F-ANA at 1 4 5 11 14 15: 46.8 a.u.
2'F-ANA at 3 4 5 7 9 11 12: 169 a.u.
2'F-ANA at 1 2 7 8 11 13 14 15: 73.6 a.u.
2'F-ANA at 1 2 4 10 11 15: 47.6 a.u.
